Measurements of several laboratories.
Every numbered part comes from another study and shows a few of its results, in no order.

Block 1 — technique: protein-binding microarray; molecule type: double-stranded DNA, one strand shown; medium: in vitro; concentration: 2200 nM top; notes: 60-bp whole probe; together with: salmon DNA 0.4 mg/ml; reference: random background probes; reading: higher = stronger binding; shared flanks, not repeated: GCCTAGCAC … GTCTTGATTCGCTTGACGCTGCTG
Target: Interferon regulatory factor 7, full length, phosphomimetic (IRF7, Homo sapiens, UniProt Q92985, residues 1-503, S471D/S472D/S475D/S476D/S477D/S483D/S484D/S487D)
UniProt Q92985, sequence (whole entry, unmodified, looked up): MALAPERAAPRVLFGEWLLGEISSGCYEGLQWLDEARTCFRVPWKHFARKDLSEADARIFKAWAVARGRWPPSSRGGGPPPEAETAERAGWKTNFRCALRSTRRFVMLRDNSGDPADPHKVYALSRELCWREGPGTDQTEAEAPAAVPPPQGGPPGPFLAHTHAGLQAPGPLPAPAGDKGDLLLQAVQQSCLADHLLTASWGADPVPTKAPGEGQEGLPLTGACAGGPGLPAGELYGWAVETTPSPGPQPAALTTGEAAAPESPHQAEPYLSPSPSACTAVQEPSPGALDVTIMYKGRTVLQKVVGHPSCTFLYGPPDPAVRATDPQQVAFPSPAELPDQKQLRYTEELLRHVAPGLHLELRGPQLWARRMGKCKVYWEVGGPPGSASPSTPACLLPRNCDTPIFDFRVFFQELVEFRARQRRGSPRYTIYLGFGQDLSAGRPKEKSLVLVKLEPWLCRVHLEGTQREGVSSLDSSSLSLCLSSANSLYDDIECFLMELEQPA
| Sequence | fitted relative affinity |
| --- | --- |
| CTGGTCTCCGGTGTTTCCTAGTGCTAG | 0.548 z-score |
| TTTTCCAGAGGCCCAGCCAGGTGCTAG | -0.0151 z-score |
| CACTTTCTTTAACTCATTCTGTGCTAG | 2.62 z-score |
| TTAGGTTTCGGGAATCGGTTAGTGCTA | 2.71 z-score |
| GACGGTTTCGACTCTCGGGACGTGCTA | 6.55 z-score |
| GGCGATTTCAGTTTCGAGACGTGCTAG | 5.26 z-score |
| GTCGGTTTCGACTTTCGGGACGTGCTA | 9.67 z-score |
| TTAGGACTGCTTATCCTTGAGTGCTAG | 0.145 z-score |
| GACGATTTCAGCATCGAGACGTGCTAG | 0.511 z-score |
| GGCGGACTGCTTTTCCTGACGTGCTAG | -0.0849 z-score |
| TTAGGTCTCCGTCTCGGTTAGTGCTAG | 0.619 z-score |
| TGGGTGACTCTTACTCATTAGTGCTAG | 0.331 z-score |
| TTGGAACTGGGGTATCGATTAGTGCTA | 0.0756 z-score |
| TTAGAACTGCGTTTCGATTAGTGCTAG | 1.73 z-score |
| CAGGTTTCTGATGGGCCTAGGTGCTAG | 1.94 z-score |
| GACGAACTGGACTATCGGGACGTGCTA | -0.489 z-score |
| GACGGACTGGGTATCGGGCCGTGCTAG | -1.22 z-score |

Block 2 — technique: RNA Bind-n-Seq; molecule type: RNA; medium: in vitro; concentration: 365 nM; reference: no-protein control; reading: higher = stronger binding
Target: RNA binding protein fox-1 homolog 2, RRM domain, GST-SBP tag (RBFOX2, Homo sapiens, UniProt O43251-10, residues 100-194)
Notes: natural RNA segment, single round, ends assumed
Shared flanks, not repeated: GGGAGUUCUACAGUCCGACGAUC … UGGAAUUCUCGGGUGCCAA
Residues (chain): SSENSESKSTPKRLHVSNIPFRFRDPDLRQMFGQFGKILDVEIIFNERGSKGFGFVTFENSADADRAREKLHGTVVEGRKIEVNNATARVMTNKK
| Sequence | RBNS enrichment (R) |
| --- | --- |
| AAUGAAUGGUGGAGCCUGCCCUUUUGUGUUCCAAGCUCGGUUGCGAGGAUGACUUACGUGCUCUGAUUUAUAUCAUAAAGCAAGAAGACUGAGCAUUCUUACACUUGAUG | 0.676 |
| UAAAAAAAAAAUGCAAGCUGUCAGGAUGCUUAAGCUCUUUUCAGACAUCUGCAGUUUCAUCCCUACCUUGUUCACAUACCAUCCAAGAGGCACAUAGGCUACCCAAGAGA | 1.13 |
| UCAGGCCUGGAUCUUGCUCCUCUGUGAGGAACAAGGGUGCCUAAUAAAUACAUUUCUGCUUUAUUAACUCUUGCUCUGGGAUUGUGGUUUCUGACCUGGCCUCCUGGUUU | 0.215 |
| UAGUGUGCCAGCACAGGCCAGACAUACUAGUGAGCCAGGCACAUCUGGCCUUGGGAAACUCAUCCUACAGGGGAAGGCCAGUUUUUUUCCCUUCAAUUCCUCAAGUCUGG | 0.458 |
| UGCUGCCUAACUUCCCUGUGUUCUAUUUGAGAGGCGCCUGUCUGGAUAAAGUUGUCUUGAAAUUUCACAGUGGUCCUGUGCUUUCUUUGUGCUUCAGGGGAAUCCUUUCU | 1.16 |
| UCUUGUCUCACCAAGUUUUUUCUCUCCAAAGGUUUCCAGGAAUUUCUCAUUAAUGGCUGAUGCAAACUUAGUGAAUAAUAAUGAAUAUAAACAAUGCUCACCUCACCAAA | 0.413 |
| GUGUGUGUGUGUGUUCACACAUGUGUGUCUUCACAUGUAUAGAAGUAGCCCUGUAAGGAGGGGCAGAGUGGCUGGUGCUACAGACGUCACAUGGGCUCUUUGGGGGUCUG | 0.482 |
| AGAUUGUCCGUGGGAGGGCUCCAGUGUCUGGGAAGAGGGCAGGCGGCCCCCAUGAAUGUCCUCGGAAGGGGGUGGCUCCUGGUAGCAUCCUUUUCCUUCACCAUCUAUGG | 1.21 |

Block 3 — technique: RNA Bind-n-Seq; molecule type: RNA; medium: in vitro; concentration: not given; reference: input RNA pool; reading: higher = stronger binding
Target: RING finger protein unkempt homolog, zinc fingers 1-6, GST-SBP tag (UNK, Homo sapiens, UniProt Q9C0B0, residues 30-357)
UniProt Q9C0B0, sequence (30-357, looked up): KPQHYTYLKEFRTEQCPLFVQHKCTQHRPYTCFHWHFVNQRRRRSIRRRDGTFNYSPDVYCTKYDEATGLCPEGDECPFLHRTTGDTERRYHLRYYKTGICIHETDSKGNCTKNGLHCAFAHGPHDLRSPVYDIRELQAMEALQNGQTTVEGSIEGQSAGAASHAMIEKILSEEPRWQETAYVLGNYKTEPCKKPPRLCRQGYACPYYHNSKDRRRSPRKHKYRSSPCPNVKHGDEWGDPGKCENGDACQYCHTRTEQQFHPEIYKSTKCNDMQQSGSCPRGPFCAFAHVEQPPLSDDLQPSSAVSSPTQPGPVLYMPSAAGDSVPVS
Notes: RNA with constant flanks, human and mouse sites, ends assumed
Shared flanks, not repeated: GGGAGUUCUACAGUCCGACGAUC … CAACAGAGGAUUGAGCAUCA
| Sequence | bound/input enrichment [ratio] |
| --- | --- |
| CCUACAGUUUUUAAUUUCUACAAUUAUCUAAGAACACAUCCUCUUUUGCUGAGACGUCAUUUUGGAUCAUCUGAUACAUUUUCCACACAUAUGAGCCUAACAGGAAAAAGUGGACUGGCA | 0.297 |
| UUGGGACAUGGGGCUGUUUUCUUCUCAGUUUGACAACCUGGAGCCCUCUCUCUCUUGGUCAUCCUUUUAGAAGCCAAGAGAAAGGUGGGUUGGGAAGCCUCUCACUUCCCUUAGGCUCAG | 0.202 |
| CUGGCAUCUGUGAAGAUUUCUAAAGUGAAAUACGUUAUCUGGUCAGCAGACAUGUCACAUGUAGCACUACUAGCCAAACACGCCAUUGUGAUCUGUAACCGCAAACUGGAUGCUUUAUGU | 0.172 |
| AUUGCCCCGGCAUCUGUCUUUGCUGGGGACUUAAGCUACGCCAUUGCUGGGUUGGUAUUUUUAGAAUACAAAGCCAGUGCACAGUGGUCUGCAGAGCUCUUGGUCAUCAAUUACCGGGGA | 0.142 |
| AUCUUUGGAUGGGGACGCAACAAGUUUGGUCAGCUAGGUCUUAAUGAUGAAAAUGAUAGGUAUGUUCCUAAUUUACUAAAGUCACUAAGAUCUCAGAAAAUAGUUUAUAUUUGUUGUGGA | 0.397 |
| UUUAUAUUUAACUAAAUGUAAGGUACGAACUAUGACAUAUUAAACUUUUCUUGCCCUUCCUAGUUCUGAGGUAGAUGUGCACAUAUCUGCCACCACAUUCCAUAUGUGUUGAGUAGUUAA | 0.936 |
| GGCAGCGCCAUAUUCAUCACUUCCUAUGUUAGGCCUGUCAAGUUCUGGGAGAGAGACUACAACACAAAACGUGUAGACCAUUCAAAUACCAGAUUGGCUUCUCAGCUUGAUAGAAAUCCA | 0.264 |
| UGAGCUGCCGAAGCCGCUGCCCUGCUCUCCGUCGCGGGCUCCUUUAAUCCCAUUGUUUCUUUUAGAUUCGCUUGGGCCUAGACGCCCUCGGGGCCCGAUAUUCGGGUUGGGCGGUACCGC | 0.334 |

Block 4 — technique: protein binding microarray; molecule type: double-stranded DNA, one strand shown; medium: in vitro; concentration: not given; reference: not given; reading: higher = stronger binding
Target: Histone acetyltransferase KAT6A, winged helix 2, GST fusion (KAT6A, Homo sapiens, UniProt Q92794, residues 85-181)
Notes: 8-mer, flanks averaged, mean of 2 arrays, mostly near background
Construct (chain): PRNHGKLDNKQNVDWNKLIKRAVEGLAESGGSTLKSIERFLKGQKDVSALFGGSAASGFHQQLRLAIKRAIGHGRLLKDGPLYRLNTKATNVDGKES
| Sequence | E-score |
| --- | --- |
| GCCTGAAC | -0.00781 |
| GCGCGAGC | 0.179 |
| CCAAAGAC | 0.0477 |
| ATAACGAA | 0.0493 |
| GCGAGGAA | 0.157 |
| GTCAGGAA | 0.0144 |
| GTTAACCA | 0.0713 |
| CAGAGAAA | 0.146 |
| ATGACGAA | 0.0442 |
| GCACTCTA | -0.111 |
| AGCTATAG | -0.178 |
| ACGAAGTA | 0.0113 |
| AGATTTCA | -0.0578 |
| CGCTCGTC | 0.11 |
| CGCGACTC | 0.0616 |
| AAGTTCGG | 0.101 |
| CTCAGCAC | -0.00587 |
| AATTACGT | -0.23 |
| GACGTAGA | -0.162 |
| ATTCATAC | 0.0623 |
| CGTTGAAG | -0.122 |
| GCCATTCC | 0.0678 |
| CGCAGTAG | 0.0676 |
| ATTCGCCC | 0.0707 |
| ACTACCCC | -0.294 |

For quick reference, copied from above (block 3):
| Sequence | bound/input enrichment [ratio] |
| --- | --- |
| CCUACAGUUUUUAAUUUCUACAAUUAUCUAAGAACACAUCCUCUUUUGCUGAGACGUCAUUUUGGAUCAUCUGAUACAUUUUCCACACAUAUGAGCCUAACAGGAAAAAGUGGACUGGCA | 0.297 |
| UUGGGACAUGGGGCUGUUUUCUUCUCAGUUUGACAACCUGGAGCCCUCUCUCUCUUGGUCAUCCUUUUAGAAGCCAAGAGAAAGGUGGGUUGGGAAGCCUCUCACUUCCCUUAGGCUCAG | 0.202 |
| CUGGCAUCUGUGAAGAUUUCUAAAGUGAAAUACGUUAUCUGGUCAGCAGACAUGUCACAUGUAGCACUACUAGCCAAACACGCCAUUGUGAUCUGUAACCGCAAACUGGAUGCUUUAUGU | 0.172 |
| AUUGCCCCGGCAUCUGUCUUUGCUGGGGACUUAAGCUACGCCAUUGCUGGGUUGGUAUUUUUAGAAUACAAAGCCAGUGCACAGUGGUCUGCAGAGCUCUUGGUCAUCAAUUACCGGGGA | 0.142 |
| AUCUUUGGAUGGGGACGCAACAAGUUUGGUCAGCUAGGUCUUAAUGAUGAAAAUGAUAGGUAUGUUCCUAAUUUACUAAAGUCACUAAGAUCUCAGAAAAUAGUUUAUAUUUGUUGUGGA | 0.397 |
| UUUAUAUUUAACUAAAUGUAAGGUACGAACUAUGACAUAUUAAACUUUUCUUGCCCUUCCUAGUUCUGAGGUAGAUGUGCACAUAUCUGCCACCACAUUCCAUAUGUGUUGAGUAGUUAA | 0.936 |
| GGCAGCGCCAUAUUCAUCACUUCCUAUGUUAGGCCUGUCAAGUUCUGGGAGAGAGACUACAACACAAAACGUGUAGACCAUUCAAAUACCAGAUUGGCUUCUCAGCUUGAUAGAAAUCCA | 0.264 |
| UGAGCUGCCGAAGCCGCUGCCCUGCUCUCCGUCGCGGGCUCCUUUAAUCCCAUUGUUUCUUUUAGAUUCGCUUGGGCCUAGACGCCCUCGGGGCCCGAUAUUCGGGUUGGGCGGUACCGC | 0.334 |
